Experimental data gathered from unrelated publications.
Parts stem from different laboratories: compare values within a part only. Positions count from the first letter of the parent shown.

Block 1 — method: RNA Bind-n-Seq; molecule type: RNA; medium: in vitro; tested at: 200 nM; notes: whole 134-nt RNA, ends assumed; added: 150 mM KCl; relative to: input library; direction: higher = stronger binding
Target: Ras GTPase-activating protein-binding protein 1, full length (G3BP1, Homo sapiens, UniProt Q13283)
Sequence of UniProt Q13283 (whole entry, looked up): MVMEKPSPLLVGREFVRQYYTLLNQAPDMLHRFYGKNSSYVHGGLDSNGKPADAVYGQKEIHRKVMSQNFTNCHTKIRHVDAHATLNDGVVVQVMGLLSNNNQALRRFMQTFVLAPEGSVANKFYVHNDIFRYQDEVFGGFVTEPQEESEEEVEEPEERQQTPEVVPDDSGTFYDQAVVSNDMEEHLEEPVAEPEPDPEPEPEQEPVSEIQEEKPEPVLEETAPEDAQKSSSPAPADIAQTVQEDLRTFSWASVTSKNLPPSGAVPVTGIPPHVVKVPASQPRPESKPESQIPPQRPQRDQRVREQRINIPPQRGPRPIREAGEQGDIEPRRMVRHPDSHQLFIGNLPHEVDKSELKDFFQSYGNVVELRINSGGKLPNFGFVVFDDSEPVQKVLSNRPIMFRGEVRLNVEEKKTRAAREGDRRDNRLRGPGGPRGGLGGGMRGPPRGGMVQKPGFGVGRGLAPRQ
All sequences stand within: GGGAGUUCUACAGUCCGACGAUC … UGGAAUUCUCGGGUGUCAAGG
Sequence | log2 enrichment
AAGUCCUGUGCUACACAUCGUAUGUACCGAAUCGGAGGUUUUUUUGGAAAAAAAGGAAAGUAUUAUGUUACGCCGUUCGGAUCUGCACUU | -1.3
UUGAUUGAUAUUACAGGCAAGAACCAGGAUGAAUGUGUGAUUGCUUUGCAUGACUGCAAUGGAGAUGUCAACAGAGCUAUCAAUGUUCUU | -2.43
UCCUGUGCUACACAUCGUAUGUACCGAAUCGGGGAGGGGUUUUUGGGGAAAAAAAGGGGAAAGUAUUAUGUUACGCCGUUCGGAUCUGCA | 0.541
UGGCCCUGGUGGCAUGCGGGGAGGAAGAGGUGGCCUCAUGGAUCGUGGUGGUCCCGGUGGAAUGUUCAGAGGUUGCCGUGGUGGAGACAG | -0.132
UCCUGUGCUACACAUCGUAUGUACCGAAUCGGGGAAAAAGGGGAAAAAGGGAAAAAGGGGAAAGUAUUAUGUUACGCCGUUCGGAUCUGC | 0.219
AAGUCCUGUGCUACACAUCGUAUGUACCGAAUCAAACCCAAACCCAAAUUUUUAAAAAAGUAUUAUGUUACGCCGUUCGGAUCUGCACUU | -0.484
CUCAAGUCCUGUGCUACACAUCGUAUGUACCGAAUCGGAAGGGGAAGGGGAAGGAAAGUAUUAUGUUACGCCGUUCGGAUCUGCACUUCC | -0.138
AGUCCUGUGCUACACAUCGUAUGUACCGAAUCGGCCCCCGGCCCCCGGCCCCCGGGGAAAGUAUUAUGUUACGCCGUUCGGAUCUGCACU | -0.527
UAACUUUAGAGGAGGAUGUGAUGGAUAUGGCAGUGGACGUGGAUUUGGGGAUGGCUAUAAUGGGUAUGGAGGAGGACCUGGAGGUGGCAA | 0.378

Block 2 — method: universal PBM; molecule type: double-stranded DNA, one strand shown; medium: in vitro; tested at: not given; direction: higher = stronger binding
Target: Sal-like protein 4, full length isoform B (SALL4, Homo sapiens, UniProt Q9UJQ4-2, residues 1-616)
Notes: 8-mer, flanks averaged, mean of replicates
Sequence | E-score
ATGCATGG | 0.0969
GATTGTAC | -0.027
AGGTACAG | 0.0395
AAATCTTG | 0.131
AGTGTAAT | 0.255
GTTCCCCA | -0.155
CACTGCAG | -0.0935
AGTCACAC | 0.00872
GCTTTCTA | 0.113
ACTAACTG | -0.0848
ATCAGCTC | 0.0142
GATGGAGA | -0.0743
CACGAGCG | -0.211
ACCTTTCG | -0.0968
GTGTCAGA | -0.0431
AATGCCGC | -0.147
TACAGGCA | 0.0793
AAAAGCCT | -0.0507
ACAAGCTA | 0.0684
GATTCCGA | -0.0974
CATGGAGG | -0.025

Block 3 — target: CCND3, cyclin fold, Cln2 fusion (human); method: yeast growth competition, sequencing; medium: yeast; notes: weak parent motif; relative to: not given; direction: higher = stronger binding
Parent: SLBP docking peptide (human); ARYKRKLLINDFG; partner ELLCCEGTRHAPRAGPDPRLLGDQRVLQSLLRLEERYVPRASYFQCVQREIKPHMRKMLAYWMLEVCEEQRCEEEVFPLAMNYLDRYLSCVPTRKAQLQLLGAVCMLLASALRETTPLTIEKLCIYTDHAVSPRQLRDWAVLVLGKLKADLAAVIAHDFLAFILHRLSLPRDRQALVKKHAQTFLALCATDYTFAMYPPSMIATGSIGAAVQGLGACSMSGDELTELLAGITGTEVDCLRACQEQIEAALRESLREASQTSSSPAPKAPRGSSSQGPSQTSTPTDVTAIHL
Change | normalised enrichment score
ARYKRKLLINDWG [F12W] | 0.115
ARYKRKLWINDFG [L8W] | 0.148
ARYKRKYLINDFG [L7Y] | 0.146
ARYKRKILINDFG [L7I] | 0.0347
ARYKPKLLINDFG [R5P] | 0.0883
ARYKRKWLINDFG [L7W] | 0.07
AYYKRKLLINDFG [R2Y] | 0.291
ARYKRKLYINDFG [L8Y] | 0.118
ARYSRKLLINDFG [K4S] | 0.116
ARYKMKLLINDFG [R5M] | 0.167
ARYKRKLDINDFG [L8D] | 0.0978
ARYKRKLLYNDFG [I9Y] | 0.174
ATYKRKLLINDFG [R2T] | 0.232
ARYHRKLLINDFG [K4H] | 0.216
ARYKRKLLINDFV [G13V] | 0.261
ARYKRKLLINDMG [F12M] | 0.14
RRYKRKLLINDFG [A1R] | 0.144
AIYKRKLLINDFG [R2I] | 0.208
ARYKRRLLINDFG [K6R] | 0.117
ARYKRKLCINDFG [L8C] | 0.151
ARYTRKLLINDFG [K4T] | 0.0509
ARYKRKLLINDLG [F12L] | 0.176
ARYKRKLLINMFG [D11M] | 0.22
ARYKRKLNINDFG [L8N] | 0.166
ARYKWKLLINDFG [R5W] | -0.02

Block 4 — method: RNA Bind-n-Seq; molecule type: RNA; medium: in vitro; tested at: 365 nM; relative to: no-protein control; direction: higher = stronger binding
Target: RNA binding protein fox-1 homolog 2, RRM domain, GST-SBP tag (RBFOX2, Homo sapiens, UniProt O43251-10, residues 100-194)
Notes: natural RNA segment, single round, ends assumed
All sequences stand within: GGGAGUUCUACAGUCCGACGAUC … UGGAAUUCUCGGGUGCCAA
Residues (chain): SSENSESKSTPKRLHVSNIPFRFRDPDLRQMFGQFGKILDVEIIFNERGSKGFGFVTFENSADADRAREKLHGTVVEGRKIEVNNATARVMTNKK
Sequence | RBNS enrichment (R)
CACAGAGAAACCCUGUCUCAAAAAAACCAACCAAACAAAAACAAAAACAAAAUGUGUCCUACUUAAUUGGUAUAUGUGUUUUUCAAACAAUCAUUUGAGGGGUGUUUUGA | 0.635
AGCCUGGCUGAGUGGAGCCUGAGACCUGCACAACAGCUCAUGGUCAUGCAUGAGAGAGAAGUGGCUGGCCACAGCCAGAGGGAACAGUAACAGCCCAGGGGCCUUUAUUU | 0.398
UCAAACCCAGCCUGACCGCUUCUGACGCCGGGAUGGCCUCGUUACUAGACUUUUCUUUUUAAGGAAGUGCUGUUUUUUUUUGAGGGUUUUCAAAACAUUUUGAAAAGCAU | 0.354
GUAAAACUUACUAAAAGAAAAGAGGUUUGUGUUCACAUUAAAUGGUUUUGGUUUGGCUUCUUUUAGUCAGGCUUUCUGAACAUUGAGAUAUCCUGAACUUAGAGCUCUUC | 0.423
AGUAGAAAGGGCGACUGACCCUCAUCAAACACAGUCUUAGCGGAGAUCCACUGAUGGCCCUGGCCCCUGCUGGGGCGGGGCAGGAGGCAGCCCUGCUCCUUGCCUUUUGC | 0.249
ACUCCACCGUCAGCUGUAACCCUCACCCACAGCCCCUGCUGGGCCCACCACCUGUCCGUCCCUGUCCCCUUUCCUGCUGGCAGGAGCCGGCUGCCUACCAGGGGCCUUCC | 0.461
CCAUUGUGUUACAGUUGCCUACAGUAUGAUUACAGUAACAUUCUGUACAGUGCUAUAGCUGAAGAGUAAUAGGCUAGGCUAUCUGUAUAGCCUAAGUGUGUAACAGGCUA | 0.314
GUAACGUAGGUGUAGAUUCCCAAAUGCAUUUGGAUGUACAGAUCGACUACAGAGUACUUUUUUCUUAUGAUGAUUGGUGUAGAAAUGUGUGAUUUGGGUGGGCUUUUACA | 2.08

Block 5 — method: protein binding microarray; molecule type: double-stranded DNA, one strand shown; medium: in vitro; tested at: not given; relative to: not given; direction: higher = stronger binding
Target: Histone acetyltransferase KAT6A, both winged helices, GST fusion (KAT6A, Homo sapiens, UniProt Q92794, residues 1-181)
Notes: 8-mer, flanks averaged, mean of 2 arrays, mostly near background
Construct (chain): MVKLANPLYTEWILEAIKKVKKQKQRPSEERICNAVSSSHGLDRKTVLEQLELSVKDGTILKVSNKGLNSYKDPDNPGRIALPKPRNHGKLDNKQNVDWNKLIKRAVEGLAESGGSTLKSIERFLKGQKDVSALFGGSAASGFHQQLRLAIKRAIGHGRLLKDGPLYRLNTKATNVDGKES
Sequence | E-score
CGGTTTAG | 0.119
CACTAGCA | -0.229
AACAACGG | 0.158
ATCGTTCG | 0.077
AATGTTCT | -0.111
GAACGGAC | 0.0714
CTCACAAC | -0.0538
ATAGTCCG | 0.118
CTCCGTTA | 0.161
AGCTCGGA | -0.0786
CCACACAC | -0.0284
AAAATATC | -0.0758
AGTCATAA | -0.117
CAGTCCAA | -0.166
AGGCTTAC | -0.0274
TACTACCA | -0.192
ACAGTCTG | -0.25
CCGAAGTA | -0.0067
AGCCACTG | -0.13
ACGGACAC | 0.208
AGCCAGGG | -0.168
CAGCTACG | 0.00815
CGGAGGAG | -0.0689
ATCGCGCG | 0.338
TCGGCGAA | 0.239

A few entries again (block 5):
Sequence | E-score
AACAACGG | 0.158
ATCGTTCG | 0.077
AATGTTCT | -0.111
GAACGGAC | 0.0714
CTCACAAC | -0.0538
ATAGTCCG | 0.118
CTCCGTTA | 0.161
AGCTCGGA | -0.0786
CCACACAC | -0.0284
AAAATATC | -0.0758
